# Assay results from different studies.
# A part holds a random share of what one study measured. Changes are numbered by the printed parent chain.

# Sample 1
# Target: ABI1, truncated, D143A, DHFR fusion (Arabidopsis thaliana, UniProt P49597)
# Technique: DHFR PCA, dose-response
# Matrix: yeast
# Setting: Hill fit, not affinity
# Added: (+)-ABA, dose series
# Reading: lower = more sensitive
# Starting sequence: PYL1, truncated, DHFR fusion (Arabidopsis thaliana, UniProt Q8VZS8); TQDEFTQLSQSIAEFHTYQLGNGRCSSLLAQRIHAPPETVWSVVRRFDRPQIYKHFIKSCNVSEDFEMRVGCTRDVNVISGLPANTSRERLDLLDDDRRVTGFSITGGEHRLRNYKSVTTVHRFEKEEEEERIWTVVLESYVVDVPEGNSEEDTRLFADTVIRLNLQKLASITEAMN
Variant,ABA EC50
G108P,2330 µM
N85Y,51.3 µM
Q2F,18.3 µM
S87R,2.08 µM
G108F,1930 µM
T101L,25.4 µM
Y141C,1140 µM

# Sample 2
# Target: Ras GTPase-activating protein-binding protein 1, RRM domain (G3BP1, Homo sapiens, UniProt Q13283)
# UniProt Q13283, sequence (whole entry, looked up): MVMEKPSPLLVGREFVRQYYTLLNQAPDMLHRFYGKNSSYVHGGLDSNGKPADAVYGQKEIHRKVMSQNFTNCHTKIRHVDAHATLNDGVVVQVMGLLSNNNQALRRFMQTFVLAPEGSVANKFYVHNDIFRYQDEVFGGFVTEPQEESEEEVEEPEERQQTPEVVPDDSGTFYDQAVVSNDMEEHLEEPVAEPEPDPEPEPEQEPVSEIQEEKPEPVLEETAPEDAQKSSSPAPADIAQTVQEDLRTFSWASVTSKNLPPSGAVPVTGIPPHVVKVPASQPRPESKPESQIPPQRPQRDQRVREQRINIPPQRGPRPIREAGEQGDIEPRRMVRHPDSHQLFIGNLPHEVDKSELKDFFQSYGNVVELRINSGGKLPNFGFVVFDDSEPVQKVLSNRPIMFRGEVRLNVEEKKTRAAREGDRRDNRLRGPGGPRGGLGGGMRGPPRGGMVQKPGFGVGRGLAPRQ
# Technique: RNA Bind-n-Seq
# Molecule type: RNA
# Matrix: in vitro
# Tested at: 1 µM
# Setting: whole 134-nt RNA, ends assumed
# Added: 150 mM KCl
# Relative to: input library
# Reading: higher = stronger binding
# Constant ends, left off below: GGGAGUUCUACAGUCCGACGAUC … UGGAAUUCUCGGGUGUCAAGG
Strand,log2 enrichment
UCCUGUGCUACACAUCGUAUGUACCGAAUCGGGGAAAAAGGGGUUUUUGGGGAAAGGGGAAAGUAUUAUGUUACGCCGUUCGGAUCUGCA,0.933
UGGCCCUGGUGGCAUGCGGGGAGGAAGAGGUGGCCUCAUGGAUCGUGGUGGUCCCGGUGGAAUGUUCAAAGGUGGCCGUGGUGGAGACAG,2.08
UUUGUAGAGCAGCCCGACGGCCAUGGAGGCUGAAGAGACGAUGGAAUGCCUUCAGGAGUUCCCUGAACAUCAUAAAAUGAUCCUCGACCG,-0.0442
GUCCUGUGCUACACAUCGUAUGUACCGAAUCGGGAAAAAAAGGGAAAAAGGGAAAGGGAAAGUAUUAUGUUACGCCGUUCGGAUCUGCAC,0.397
UGGCCCUGGUGGCUUGCGGGGAGGAAGAGGUGGCCUCAUGGAUCGUGGUGGUCCCGGUGGAAUGUUCAGAGGUGGCCGUGGUGGAGACAG,0.942
AGAGAAAAGGAACAGUUCCGUAAGCUCUUUAUUGGUGGCUUAAGCUUUGAAACCACAGAAGAAAGUUUGAGGAACUACUACGAACAAUGG,-0.246
CCUCAAGUCCUGUGCUACACAUCGUAUGUACCGAAUCGGGCGGGGCGGCGGGGAAAGUAUUAUGUUACGCCGUUCGGAUCUGCACUUCCA,-0.0482
UGCCGAUUCGGAAGUCCUUGAGGAGCGUCAGAAGCGGCUUCCCUACGUCCCAGAGCCCUAUUACCCGGAAUCUGGAUGGGACCGCCUCCG,-0.271
AGUCCUGUGCUACACAUCGUAUGUACCGAAUCGGCCCCCGGGCCCCCGGGCCCCCGGGAAAGUAUUAUGUUACGCCGUUCGGAUCUGCAC,-0.66
CUCAAGUCCUGUGCUACACAUCGUAUGUACCGAAUCGGGGCCGGCCGGGCCGGGAAAGUAUUAUGUUACGCCGUUCGGAUCUGCACUUCC,-0.597
UCUCCACCUGCUGAGCUCCCCAGUUUGAGGCGGAGCACACGCCAAAAGACCACGGGCUCCUGUGCUAGUACCAGGUAAUUUGUUUUUUUU,-0.11
UGGCCCUGGUGGCAUGCGGGGAGGAAGAGGUGGCCUCAUGGAUCAUGGUGGUCCCGGUGGAAUGUUCAGAGGUGGCCGUGGUGGAGACAG,1.33
AAGUCCUGUGCUACACAUCGUAUGUACCGAAUCGGGGUUUUGGGUUUUGGUUUUGGAAAGUAUUAUGUUACGCCGUUCGGAUCUGCACUU,-0.395
AGUCCUGUGCUACACAUCGUAUGUACCGAAUCGGGUUUUUGGGUUUUUUUGGGUGGGAAAGUAUUAUGUUACGCCGUUCGGAUCUGCACU,0.385

# Sample 3
# Target: RNA binding protein fox-1 homolog 2, RRM domain, GST-SBP tag (RBFOX2, Homo sapiens, UniProt O43251-10, residues 100-194)
# Technique: RNA Bind-n-Seq
# Molecule type: RNA
# Matrix: in vitro
# Tested at: 365 nM
# Setting: natural RNA segment, single round, ends assumed
# Relative to: no-protein control
# Reading: higher = stronger binding
# Constant ends, left off below: GGGAGUUCUACAGUCCGACGAUC … UGGAAUUCUCGGGUGCCAA
# Residues (chain): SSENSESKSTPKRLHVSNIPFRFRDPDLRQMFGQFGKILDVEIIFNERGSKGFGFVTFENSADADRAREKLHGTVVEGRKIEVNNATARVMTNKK
Strand,RBNS enrichment (R)
GUGAGGACCAAAAAUCUGAAACUCUUAUGAAUCUGACAUAUUAUAUGGAAAUUAUAUCUUGUGACCGUCUUCAAGUGCAUGGACUUAAAAUUCAUGAGAGACUAAAUGUG,2.94
UUAGAGGCACAACGUACAGAUAUUUCAUUUUAGAAGGUUGUCAUAAAUGCUAUUUUUACUAAACAUGUCGUACCUAUGCAGUAUAUACAUUAAAGGAAAGCUUGCACUGU,0.327
GGAGAUCACAGCCCUGACCAAUAGGCCCAGCGGUCCACACACACUUCACUAUUUGGUUUAAUGUCAGGUCUGCUGGGGGUAAUGGUGGCCAAGAUCUCAAACUAGGGCUU,0.212
AGUGCUGUCAACUGGUCUCCCACUGUCACUCCCACUCAUUUCAUUUGGACACAGGAAAUGUUGAUAGAUAUUUCGUUAAAUUGGUGAGUUUGGUAAUAUGUUAGCUCUCA,0.849
AUCAUCGGGAAAAAACUUUGCUCCAGGCAUCACUGAUUCCCUCUCCCACCCAAGGAGAACGUUUGGUACAAUCGACAUCCUAGCCCCACCCAGAGGUGGCCCUCCCAGGC,0.387
AAGGAGUCUCAGAGAUCAUCUCCUUUUUUUUCCAUAUCUACAACCUCAUUUUUCCCACAGUGGAGAUUUGGAAGAUGUCCCAAUUUAAUGUAGGUGUUUUCAUCUGUCAU,0.553
CUUCACAGAAUGAUGGCAUCUUCCUAAACCCUUCUGGGAGAUGUCUGAGAAGUUGUGAAGGGUCCAGAGCCAGUCUGCUUUAGAGUCCAAUAAAGUGUAGGUGUGGCAAU,0.358
AUCCAUUCCCACCAGUCCAUUUCAGUUGCCACCAGCCUGAACCACUCGGUACCUGGUGUUAACUGGAGCCCUGUUUACAAGGCGGAGUCGGGUCUUGCUGACUUCUCUUC,0.201
CCUCUUUGAAACACCCCGUGUUGUCCAGUAUACCUUAUAACACUGAGCCACUUCUCCCCACCCUCCAGAAGGGGUCCACGUUGAAUUCUGAAUCAUCUUGAAAAUAAGAU,0.386
UAAAUGCUAUUGCAUCAUAUAAUUUGCUAUUCAUCCACUAUGGCAUUGCAUAUCAAUCAGUUAAUACACUUAAUGUUGCAUGAGUGAUAUUUUGGUCUGGGUUUCCUCUU,0.657
CAGGCCUCUGGAAUCAGAAUCUUCAGGGUGGGGCCCAGCAGUCUGUGUUUUAACAGGUUCUCCCGGUGAUGCUGGUGCAUGCUCAAGUUUGAGAACCGCUGCUCUCAUAG,7.73
GUACUUACUGAGGUCCAUGUAUUAAUAAGAGGUCAGUCUGUACAAAAAUCUAAAGAUUUUUUCACUUUCUUUGUAUUAUUAUAUAUGAGUAACUUUUGAUACCAGAAUAA,0.523

# Sample 4
# Target: Histone acetyltransferase KAT6A, both winged helices, GST fusion (KAT6A, Homo sapiens, UniProt Q92794, residues 1-181)
# Technique: protein binding microarray
# Molecule type: double-stranded DNA, one strand shown
# Matrix: in vitro
# Tested at: not given
# Setting: 8-mer, flanks averaged, mean of 2 arrays, mostly near background
# Relative to: not given
# Reading: higher = stronger binding
# Target sequence (chain): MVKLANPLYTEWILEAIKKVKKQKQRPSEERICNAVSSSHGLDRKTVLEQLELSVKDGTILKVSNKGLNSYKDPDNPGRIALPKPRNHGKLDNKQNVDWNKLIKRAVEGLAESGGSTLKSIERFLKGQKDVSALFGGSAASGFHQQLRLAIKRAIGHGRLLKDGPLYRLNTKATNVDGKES
Strand,E-score
ACAATGAC,-0.14
ATGCCAGC,-0.0572
AATAAAAA,0.044
CTCGGGAA,0.118
CCATACCC,-0.0631
GCAGAAGA,-0.093
GTTGGGGA,-0.143
GTTCGCAA,0.142
ACGCGCAT,0.344
CGGGTGGA,0.144
CCAGGCCA,-0.125
CAGCTCCC,-0.0951
AGGAATAT,-0.0796
ATTTGCAA,-0.0334
AGGGTCAG,-0.19
CCCCCGGA,0.12
ATTGCGTC,0.144
ACCTAAGC,-0.0814
CACAACTG,-0.0632
AGGCATAT,-0.219
ACGTGTCT,-0.0275
CATCTTCG,0.0179
GTCTCCTA,-0.161
CCCTCTGA,-0.135
CCGAAACA,0.0962

# Sample 5
# Target: CCNE2, cyclin fold, Cln2 fusion (human)
# Technique: yeast growth competition, sequencing
# Matrix: yeast
# Setting: strong parent motif
# Relative to: not given
# Reading: higher = stronger binding
# Starting sequence: CDKN1B docking peptide (human); PSACRNLFGPVDH
Variant,normalised enrichment score
L7T,-0.308
N6W,1.12
N6Q,2.41
P1Q,1.94
R5Q,-0.398
A3W,2.51
D12V,1.53
S2T,1.43
H13M,1.4
P10Y,1.31
H13K,1.77
S2R,1.66
N6M,1.81
G9Q,0.669
V11R,0.203
H13D,1.33
F8M,0.188

# A few entries again (sample 4):
Strand,E-score
ACGTGTCT,-0.0275
CATCTTCG,0.0179
GTCTCCTA,-0.161
CCCTCTGA,-0.135
CCGAAACA,0.0962
